{"data": "Results of several laboratories", "note": "A part holds a random share of what one study measured."}
{"data": "Sample 1", "target": "Histone acetyltransferase KAT6A, both winged helices, GST fusion (KAT6A, Homo sapiens, UniProt Q92794, residues 1-181)", "method": "protein binding microarray", "form": "double-stranded DNA, one strand shown", "sample": "in vitro", "concentration": "not given", "notes": "8-mer, flanks averaged, mean of 2 arrays, mostly near background", "reference": "not given", "direction": "higher = stronger binding", "Construct (chain)": "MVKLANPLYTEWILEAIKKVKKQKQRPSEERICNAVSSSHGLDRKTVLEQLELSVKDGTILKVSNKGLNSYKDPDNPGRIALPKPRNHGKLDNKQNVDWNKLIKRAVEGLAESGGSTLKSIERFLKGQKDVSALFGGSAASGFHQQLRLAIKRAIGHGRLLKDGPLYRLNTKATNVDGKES"}
{"Strand": "GCATATCA", "E-score": 0.0962}
{"Strand": "CAATACAA", "E-score": -0.0907}
{"Strand": "GAGGGCGA", "E-score": 0.0274}
{"Strand": "AACGCCTG", "E-score": -0.094}
{"Strand": "GAGCCCGC", "E-score": 0.157}
{"Strand": "CGCCACTA", "E-score": 0.15}
{"Strand": "CTTGTCCC", "E-score": 0.153}
{"Strand": "ACTTCACA", "E-score": -0.214}
{"Strand": "CAAACAGG", "E-score": -0.157}
{"Strand": "CTTCACAA", "E-score": -0.194}
{"Strand": "ATCGTCAG", "E-score": -0.176}
{"Strand": "TCGTACGA", "E-score": 0.0398}
{"Strand": "CATATGCG", "E-score": 0.195}
{"Strand": "ATAAGGGA", "E-score": -0.234}
{"Strand": "AGATGCAC", "E-score": -0.0514}
{"Strand": "AAACTCGC", "E-score": 0.0983}
{"Strand": "TATACCGA", "E-score": 0.087}
{"Strand": "CACAGCAG", "E-score": -0.149}
{"Strand": "GCCGCCCA", "E-score": 0.17}
{"Strand": "CGCCTAGC", "E-score": 0.142}
{"Strand": "AGCGACCT", "E-score": -0.00344}
{"Strand": "TCCCGACA", "E-score": 0.0777}
{"Strand": "AGAGGATA", "E-score": -0.307}
{"Strand": "ACACTCCG", "E-score": 0.0539}
{"Strand": "AGCATTGG", "E-score": -0.09}
{"data": "Sample 2", "target": "Interferon regulatory factor 3, full length, phosphomimetic (IRF3, Homo sapiens, UniProt Q14653, residues 1-427, S386D/S396D/S398D/S402D/T404D/S405D)", "method": "protein-binding microarray", "form": "double-stranded DNA, one strand shown", "sample": "in vitro", "concentration": "2540 nM top", "notes": "60-bp whole probe", "added": "salmon DNA 0.4 mg/ml", "reference": "random background probes", "direction": "higher = stronger binding", "shared flanks, not repeated": "GCCTAGCAC … GTCTTGATTCGCTTGACGCTGCTG", "Residues (chain)": "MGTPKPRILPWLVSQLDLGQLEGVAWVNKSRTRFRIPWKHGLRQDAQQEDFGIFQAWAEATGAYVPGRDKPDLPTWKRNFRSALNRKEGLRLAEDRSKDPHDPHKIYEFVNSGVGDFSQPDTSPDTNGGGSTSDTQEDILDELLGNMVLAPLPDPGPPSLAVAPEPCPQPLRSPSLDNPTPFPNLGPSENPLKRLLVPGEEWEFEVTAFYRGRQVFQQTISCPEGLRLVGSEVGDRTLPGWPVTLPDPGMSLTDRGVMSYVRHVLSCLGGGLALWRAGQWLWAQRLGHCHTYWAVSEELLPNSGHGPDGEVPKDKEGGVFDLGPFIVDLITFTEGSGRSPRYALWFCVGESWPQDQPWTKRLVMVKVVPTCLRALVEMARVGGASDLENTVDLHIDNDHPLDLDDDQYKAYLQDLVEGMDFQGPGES"}
{"Strand": "ACTCGTGTTTTTCTCCTATTGTGCTAG", "fitted relative affinity [z-score]": 0.75}
{"Strand": "TTTCATTGCTGCCCTCAGAAAGTGCTA", "fitted relative affinity [z-score]": 1.78}
{"Strand": "GACGGTTTCGGTCTCAGGACGTGCTAG", "fitted relative affinity [z-score]": 8.21}
{"Strand": "TAGTTTTTACTTTCTGAATGGTGCTAG", "fitted relative affinity [z-score]": 3.83}
{"Strand": "GACGGTGTCGGTCTCGGGACGTGCTAG", "fitted relative affinity [z-score]": 2.77}
{"Strand": "TTAGATATCGGGACTGAATTAGTGCTA", "fitted relative affinity [z-score]": 0.197}
{"Strand": "TTTGGTATCGGACTGGGTTAGTGCTAG", "fitted relative affinity [z-score]": 1.6}
{"Strand": "GACGGTATCGGGTTGCGGGACGTGCTA", "fitted relative affinity [z-score]": 1.88}
{"Strand": "GGTACAAACTTGTAATTATAGTGCTAG", "fitted relative affinity [z-score]": 0.502}
{"Strand": "GACGGGTTCCTTATCCTGACGTGCTAG", "fitted relative affinity [z-score]": 2.78}
{"Strand": "TTTTTTTTTACTTCGGGTGAGTGCTAG", "fitted relative affinity [z-score]": 1.71}
{"Strand": "GACGGACTGCTGTTCCTGACGTGCTAG", "fitted relative affinity [z-score]": -0.196}
{"Strand": "GTTTGGGTCTTGTCTGGAGTCGTGCTA", "fitted relative affinity [z-score]": 0.122}
{"Strand": "TTAGGTATCCTGCTGCTTTAGTGCTAG", "fitted relative affinity [z-score]": 0.492}
{"Strand": "CCCCCAATCTCTCTTCACATGTGCTAG", "fitted relative affinity [z-score]": 0.848}
{"Strand": "TTAGGTCCCGGTTTCGGTTAGTGCTAG", "fitted relative affinity [z-score]": 4.24}
{"Strand": "TTAGGTCTCCTTCTCCTTAAGTGCTAG", "fitted relative affinity [z-score]": 4.53}
{"Strand": "TTAGGTTTCGACTAGCGGTTAGTGCTA", "fitted relative affinity [z-score]": 1.76}
{"Strand": "GACGGTCTTCTTTTCCTGACGTGCTAG", "fitted relative affinity [z-score]": 1.43}
{"data": "Sample 3", "target": "RNA binding protein fox-1 homolog 2, RRM domain, GST-SBP tag (RBFOX2, Homo sapiens, UniProt O43251-10, residues 100-194)", "method": "RNA Bind-n-Seq", "form": "RNA", "sample": "in vitro", "concentration": "365 nM", "notes": "natural RNA segment, single round, ends assumed", "reference": "no-protein control", "direction": "higher = stronger binding", "Construct (chain)": "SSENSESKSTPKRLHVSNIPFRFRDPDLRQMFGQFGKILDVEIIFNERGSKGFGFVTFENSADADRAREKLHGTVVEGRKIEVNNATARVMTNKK"}
{"Strand": "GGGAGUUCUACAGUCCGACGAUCUAUUUGUGUGUGUGUUCUACCUUUCUACCAUAUGUCAUCAGUUUAAUGGUAACUUUAUUUAUUUAAAAACAAAGAAACACAAAUAGUUACUAUUAAACUGAUUAAGGCUGUGGAAUUCUCGGGUGCCAA", "RBNS enrichment (R)": 0.463}
{"Strand": "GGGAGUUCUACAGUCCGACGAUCUAGGAUACAGGGCAGGGAUAAAUACAGUGCAUGUCUGCUUCAAUUAGCAGAUGCCGCAACUCCACACAGUGUGUAAAAUAUAUACAACCAAAAAUCAGCUUUUGCAGGUCUGGAAUUCUCGGGUGCCAA", "RBNS enrichment (R)": 0.889}
{"Strand": "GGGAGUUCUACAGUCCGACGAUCUAUUACCAGGCUUUCCUUCUCACCCCUUUUUUCUGACUUUGCCAAGUAAUUUGUUGACACGAAAAUUUUGGAGGAACCAAUUGAAAACACACUUCCAGUCUAGAUGAUGCUGGAAUUCUCGGGUGCCAA", "RBNS enrichment (R)": 0.706}
{"Strand": "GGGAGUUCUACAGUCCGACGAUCGGUUUCUUCUAAUCAAGCUUCCACCCUGCAAUGGCUGUCGUGCCAUCUUCCUUCUGUGUUUUACUCGGCUCAUUGCUUCUCUGGAGACAAAUGCAAUGCUUCCUACCCCCUGGAAUUCUCGGGUGCCAA", "RBNS enrichment (R)": 0.467}
{"Strand": "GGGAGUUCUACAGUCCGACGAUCUUUAAAUAAAAUAAUAAGAUAAAAGGUGACAACCGCAGUUGACACCUAGCAUGUUUUGUGGACGCAGUCAAGCUGCCACAGUCUGGUCAUCGUUGUUGUUGUGCUGACGUUGGAAUUCUCGGGUGCCAA", "RBNS enrichment (R)": 3.12}
{"Strand": "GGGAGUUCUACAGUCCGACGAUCUGGUCGUAGAACCUUUUCCAAACAGAAGCAUCUGCCUUUGGCUGUUCUGUGACCUUUGAAGCCAGUCUCAGUGGUUUAGGCAGCUUUGCAGUUCUAACUCUAGCUAGAGGUGGAAUUCUCGGGUGCCAA", "RBNS enrichment (R)": 0.326}
{"Strand": "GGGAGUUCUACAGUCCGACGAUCGGACCUCUGGUGAGAGGCCAGUGCCCUGCCCCACCCUGGAGCUUCAAAUAAAGAGCUUUUUACCCCCUCUUGCCUGGUGCUGCCCUGUUGAAGAUAGGGGAUUCGAGGUUUGGAAUUCUCGGGUGCCAA", "RBNS enrichment (R)": 0.394}
{"Strand": "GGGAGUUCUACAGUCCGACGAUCAUAUAUACAUAUAUAUGCACCUAUAUAACGUGUAUAUAUAUAAAUGCAGCCAUUGCUAUUGCAAUUCAUUUAAUAAAGCUUUAGUUUAAAAACCAAGCAUUGUGUACAGGUGGAAUUCUCGGGUGCCAA", "RBNS enrichment (R)": 0.353}
{"data": "Sample 4", "target": "Sal-like protein 4, full length isoform B (SALL4, Homo sapiens, UniProt Q9UJQ4-2, residues 1-616)", "method": "universal PBM", "form": "double-stranded DNA, one strand shown", "sample": "in vitro", "concentration": "not given", "notes": "8-mer, flanks averaged, mean of replicates", "direction": "higher = stronger binding"}
{"Strand": "CTACAGGA", "E-score": -0.0186}
{"Strand": "CCAACAAC", "E-score": -0.137}
{"Strand": "GCTGATAA", "E-score": 0.0858}
{"Strand": "GACGTTGA", "E-score": -0.0781}
{"Strand": "GCCCTTAC", "E-score": -0.183}
{"Strand": "GCAGCCGA", "E-score": -0.271}
{"Strand": "CCTAGGTC", "E-score": -0.221}
{"Strand": "CCAAGCGA", "E-score": -0.157}
{"Strand": "ACCACGCA", "E-score": -0.159}
{"Strand": "AGCGTGAA", "E-score": 0.0324}
{"Strand": "ATCCCTAC", "E-score": 0.0556}
{"Strand": "AGCTTAGA", "E-score": 0.0261}
{"Strand": "GTTATTAA", "E-score": 0.443}
{"Strand": "GTCGCAAA", "E-score": 0.0295}
{"Strand": "TGGCCCAA", "E-score": -0.24}
{"Strand": "AGGTCGTC", "E-score": -0.124}
{"Strand": "CTGCACTA", "E-score": 0.158}
{"Strand": "AGGATCCG", "E-score": -0.233}
{"Strand": "CGATCACC", "E-score": -0.159}
{"Strand": "ATTATCAA", "E-score": 0.312}
{"Strand": "ACCTCAAT", "E-score": 0.0206}
{"Strand": "CCGTGGGA", "E-score": -0.293}
{"Strand": "AGACGATA", "E-score": 0.218}
{"Strand": "ACGGTCCT", "E-score": -0.262}
{"Strand": "ACCCCGCT", "E-score": -0.267}
{"note": "Some of these lines once more (sample 4):"}
{"Strand": "CCGTGGGA", "E-score": -0.293}
{"Strand": "GTTATTAA", "E-score": 0.443}
{"Strand": "CCAACAAC", "E-score": -0.137}
{"Strand": "AGCTTAGA", "E-score": 0.0261}
